Results collected from several papers.
Protocols differ between the studies behind these lines. Values joined by “and” are separate records of one study, mostly repeats; a detail may differ. ± gives the spread as reported.
OPRD1: Delta-type opioid receptor (OPRD1, Homo sapiens, UniProt P41143)
Sequence of UniProt P41143 (whole entry, looked up): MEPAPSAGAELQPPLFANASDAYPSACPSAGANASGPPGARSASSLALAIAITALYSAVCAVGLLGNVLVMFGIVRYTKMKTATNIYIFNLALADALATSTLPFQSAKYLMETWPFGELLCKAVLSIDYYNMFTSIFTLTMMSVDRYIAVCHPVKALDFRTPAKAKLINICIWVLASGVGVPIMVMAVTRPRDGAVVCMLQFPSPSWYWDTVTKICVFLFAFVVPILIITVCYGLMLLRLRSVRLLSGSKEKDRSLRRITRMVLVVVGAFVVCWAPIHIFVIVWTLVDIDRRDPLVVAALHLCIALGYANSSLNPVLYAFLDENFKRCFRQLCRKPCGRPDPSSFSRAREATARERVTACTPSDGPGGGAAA
GABA-A receptor; alpha-1/beta-3/gamma-2: GABA-A receptor; alpha-1/beta-3/gamma-2 (Homo sapiens, UniProt P14867+P18507+P28472)
Sequence of UniProt P14867 (whole entry, looked up): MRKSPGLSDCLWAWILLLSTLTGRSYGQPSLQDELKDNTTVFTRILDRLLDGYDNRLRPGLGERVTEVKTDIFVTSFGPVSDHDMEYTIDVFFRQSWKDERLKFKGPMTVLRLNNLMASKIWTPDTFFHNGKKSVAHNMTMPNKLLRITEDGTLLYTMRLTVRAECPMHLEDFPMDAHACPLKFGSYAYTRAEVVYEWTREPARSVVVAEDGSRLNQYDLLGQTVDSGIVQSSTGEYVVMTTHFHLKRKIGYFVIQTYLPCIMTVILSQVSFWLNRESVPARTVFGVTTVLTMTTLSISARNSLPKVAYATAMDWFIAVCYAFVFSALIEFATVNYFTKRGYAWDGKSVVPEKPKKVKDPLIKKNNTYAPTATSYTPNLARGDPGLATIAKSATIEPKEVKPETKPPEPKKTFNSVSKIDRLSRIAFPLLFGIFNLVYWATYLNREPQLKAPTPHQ
Sequence of UniProt Q01959 (whole entry, looked up): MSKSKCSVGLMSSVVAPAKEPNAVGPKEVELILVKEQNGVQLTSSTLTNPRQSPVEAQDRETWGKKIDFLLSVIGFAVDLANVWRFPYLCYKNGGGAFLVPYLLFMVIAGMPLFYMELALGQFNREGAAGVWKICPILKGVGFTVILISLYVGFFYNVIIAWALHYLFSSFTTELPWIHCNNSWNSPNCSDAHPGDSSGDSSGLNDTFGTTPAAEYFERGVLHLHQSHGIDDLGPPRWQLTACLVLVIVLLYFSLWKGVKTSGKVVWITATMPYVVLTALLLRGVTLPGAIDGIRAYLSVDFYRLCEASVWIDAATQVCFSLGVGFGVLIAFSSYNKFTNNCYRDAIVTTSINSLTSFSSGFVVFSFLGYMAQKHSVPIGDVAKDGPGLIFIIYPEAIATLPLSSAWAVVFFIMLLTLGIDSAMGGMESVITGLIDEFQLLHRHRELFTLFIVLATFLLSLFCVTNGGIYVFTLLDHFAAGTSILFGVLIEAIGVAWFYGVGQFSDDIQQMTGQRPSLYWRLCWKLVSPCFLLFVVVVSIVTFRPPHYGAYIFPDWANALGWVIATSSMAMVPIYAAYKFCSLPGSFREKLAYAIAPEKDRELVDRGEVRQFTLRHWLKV
Sequence of UniProt P18507 (whole entry, looked up): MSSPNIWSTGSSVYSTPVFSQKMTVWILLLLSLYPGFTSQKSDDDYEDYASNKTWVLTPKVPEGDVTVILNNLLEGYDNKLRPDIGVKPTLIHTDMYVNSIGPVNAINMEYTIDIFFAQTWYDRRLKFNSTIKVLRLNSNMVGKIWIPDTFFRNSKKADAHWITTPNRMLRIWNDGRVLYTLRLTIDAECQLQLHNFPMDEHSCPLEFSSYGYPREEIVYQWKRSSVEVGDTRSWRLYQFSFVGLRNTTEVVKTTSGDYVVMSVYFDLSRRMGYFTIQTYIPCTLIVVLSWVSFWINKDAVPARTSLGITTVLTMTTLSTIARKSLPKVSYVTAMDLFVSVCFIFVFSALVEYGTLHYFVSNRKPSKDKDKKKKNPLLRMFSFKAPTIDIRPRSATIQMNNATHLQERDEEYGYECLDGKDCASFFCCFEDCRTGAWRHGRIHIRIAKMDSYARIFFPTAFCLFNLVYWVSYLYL
Sequence of UniProt P28472 (whole entry, looked up): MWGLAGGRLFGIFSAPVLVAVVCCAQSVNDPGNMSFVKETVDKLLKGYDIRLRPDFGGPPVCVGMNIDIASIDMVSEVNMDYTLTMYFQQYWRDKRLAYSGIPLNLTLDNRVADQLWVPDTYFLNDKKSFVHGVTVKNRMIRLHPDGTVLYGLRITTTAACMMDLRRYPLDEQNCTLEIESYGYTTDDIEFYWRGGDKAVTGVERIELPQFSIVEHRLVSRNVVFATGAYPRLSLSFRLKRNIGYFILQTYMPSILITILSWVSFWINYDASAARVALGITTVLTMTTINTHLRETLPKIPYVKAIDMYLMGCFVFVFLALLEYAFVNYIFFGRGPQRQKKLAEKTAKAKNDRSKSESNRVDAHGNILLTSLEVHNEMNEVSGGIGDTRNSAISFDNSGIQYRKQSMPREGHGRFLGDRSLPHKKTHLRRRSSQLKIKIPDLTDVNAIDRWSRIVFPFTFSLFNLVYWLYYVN
Sequence of UniProt Q8NET8 (whole entry, unmodified, looked up): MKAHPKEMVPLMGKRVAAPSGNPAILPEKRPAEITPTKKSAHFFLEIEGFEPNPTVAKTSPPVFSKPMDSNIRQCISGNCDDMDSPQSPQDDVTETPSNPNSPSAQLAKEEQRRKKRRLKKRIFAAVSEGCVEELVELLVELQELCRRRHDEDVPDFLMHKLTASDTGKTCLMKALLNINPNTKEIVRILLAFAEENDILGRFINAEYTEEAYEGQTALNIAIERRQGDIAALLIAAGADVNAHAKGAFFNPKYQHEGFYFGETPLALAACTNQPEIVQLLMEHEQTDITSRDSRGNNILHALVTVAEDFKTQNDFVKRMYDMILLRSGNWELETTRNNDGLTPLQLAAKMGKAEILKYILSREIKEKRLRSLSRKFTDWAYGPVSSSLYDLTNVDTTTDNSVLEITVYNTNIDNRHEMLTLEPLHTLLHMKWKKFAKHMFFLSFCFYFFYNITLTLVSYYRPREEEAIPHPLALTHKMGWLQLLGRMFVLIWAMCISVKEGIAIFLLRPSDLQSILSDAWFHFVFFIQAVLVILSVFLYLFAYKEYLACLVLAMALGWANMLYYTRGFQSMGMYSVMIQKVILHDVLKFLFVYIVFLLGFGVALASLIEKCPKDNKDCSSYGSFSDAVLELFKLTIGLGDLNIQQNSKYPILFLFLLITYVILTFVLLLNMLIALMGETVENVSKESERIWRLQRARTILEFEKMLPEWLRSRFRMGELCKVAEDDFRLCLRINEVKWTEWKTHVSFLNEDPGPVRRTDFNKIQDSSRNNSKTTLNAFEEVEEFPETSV
Sequence of UniProt A2AIR5 (whole entry, looked up): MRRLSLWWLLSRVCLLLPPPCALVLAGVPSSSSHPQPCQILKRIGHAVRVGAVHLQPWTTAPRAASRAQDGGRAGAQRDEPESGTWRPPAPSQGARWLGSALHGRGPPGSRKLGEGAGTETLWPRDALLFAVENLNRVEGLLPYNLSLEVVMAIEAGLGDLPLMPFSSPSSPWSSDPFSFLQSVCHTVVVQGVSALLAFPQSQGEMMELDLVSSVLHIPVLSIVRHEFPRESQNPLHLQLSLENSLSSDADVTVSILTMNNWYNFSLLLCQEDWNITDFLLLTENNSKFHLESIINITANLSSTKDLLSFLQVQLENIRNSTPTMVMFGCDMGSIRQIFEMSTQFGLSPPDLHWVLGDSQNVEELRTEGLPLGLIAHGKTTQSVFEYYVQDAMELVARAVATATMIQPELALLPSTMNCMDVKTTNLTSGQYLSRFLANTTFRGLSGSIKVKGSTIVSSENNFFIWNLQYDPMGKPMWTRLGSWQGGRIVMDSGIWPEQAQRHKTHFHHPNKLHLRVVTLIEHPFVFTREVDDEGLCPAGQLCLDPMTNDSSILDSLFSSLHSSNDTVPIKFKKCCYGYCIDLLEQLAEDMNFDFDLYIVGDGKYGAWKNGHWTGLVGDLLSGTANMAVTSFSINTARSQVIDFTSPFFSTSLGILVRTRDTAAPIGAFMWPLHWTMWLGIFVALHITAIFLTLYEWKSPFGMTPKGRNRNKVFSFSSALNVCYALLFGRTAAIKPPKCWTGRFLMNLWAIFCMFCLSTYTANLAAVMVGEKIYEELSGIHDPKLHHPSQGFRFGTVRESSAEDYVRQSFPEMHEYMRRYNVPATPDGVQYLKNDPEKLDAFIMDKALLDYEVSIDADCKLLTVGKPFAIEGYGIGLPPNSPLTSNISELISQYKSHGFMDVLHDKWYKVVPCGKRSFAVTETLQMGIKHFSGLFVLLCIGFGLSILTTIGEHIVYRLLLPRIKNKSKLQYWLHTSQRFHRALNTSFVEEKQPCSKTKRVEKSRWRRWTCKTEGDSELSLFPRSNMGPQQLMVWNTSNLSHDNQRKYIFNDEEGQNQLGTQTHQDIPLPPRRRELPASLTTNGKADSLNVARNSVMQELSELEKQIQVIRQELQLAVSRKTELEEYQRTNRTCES
Sequence of UniProt P28223 (whole entry, looked up): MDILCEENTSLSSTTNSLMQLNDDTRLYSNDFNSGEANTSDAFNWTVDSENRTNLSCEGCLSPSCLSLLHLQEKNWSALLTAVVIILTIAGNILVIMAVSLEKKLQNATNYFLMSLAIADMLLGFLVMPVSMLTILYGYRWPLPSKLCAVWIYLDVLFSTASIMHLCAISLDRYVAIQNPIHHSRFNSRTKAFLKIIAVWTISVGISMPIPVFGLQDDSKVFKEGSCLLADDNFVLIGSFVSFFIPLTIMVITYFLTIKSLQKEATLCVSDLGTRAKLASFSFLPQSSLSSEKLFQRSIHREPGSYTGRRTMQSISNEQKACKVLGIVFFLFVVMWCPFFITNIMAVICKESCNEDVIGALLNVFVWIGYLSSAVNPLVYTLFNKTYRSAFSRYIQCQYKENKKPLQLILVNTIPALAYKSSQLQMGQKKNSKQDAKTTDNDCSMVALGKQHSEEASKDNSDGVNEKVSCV

| Compound | target | test | test system | conditions | scale | quantity | value |
| --- | --- | --- | --- | --- | --- | --- | --- |
| Nc1ncnc2c1ncn2[C@@H]1O[C@H](CSCC[C@H](N)C(=O)O)[C@@H](O)[C@H]1O | Replicase polyprotein 1ab, nsp10-nsp16 complex (rep, Human coronavirus 229E, UniProt P0C6X1) |  |  |  |  | Hill slope | -0.7 |
| Cl.O=C(N[C@H]1CC[C@@]2(O)[C@H]3Cc4ccc(O)c5c4[C@@]2(CCN3CC2CC2)[C@H]1O5)c1ccc(C(F)F)s1 | OPRD1 | radioligand binding | CHO membranes |  | baseline: Ki µ over Ki δ | selectivity ratio | 117 |
| Oc1ccc2c3c1O[C@H]1[C@@H](O)CC[C@@]4(O)[C@@H](C2)N(CC2CCC2)CC[C@]314 | Probable G-protein coupled receptor 19 (GPR19, Homo sapiens, UniProt Q15760) | β-arrestin recruitment, TANGO luminescence, measured: GPR19 |  | concentration not given | baseline: basal luminescence | log2 fold change | -0.03 |
| CCOc1ccccc1C(=O)Nc1ccc(Cl)c(C(F)(F)F)c1 | Histone acetyltransferase KAT5 (KAT5, Homo sapiens, UniProt Q92993) | SPR |  | 0.21 µM | higher = more binding | SPR binding response | 0.125 RU |
| Nc1ncnc2c1ncn2[C@@H]1O[C@H](COP(=O)(O)OP(=O)(O)OP(=O)(O)O)[C@@H](O)[C@H]1O | Hepatocyte growth factor receptor (MET, Homo sapiens, UniProt P08581, L1195V) | substrate |  |  |  | Km | 2 µM |
| CCCc1cc(O)c2c(c1)OC(C)(C)[C@@H]1CCC(C)=C[C@@H]21 | Transient receptor potential cation channel subfamily V member 3 (TRPV3, Homo sapiens, UniProt Q8NET8, A560M) | calcium uptake, agonist | HEK293S | mutant A560M, site 1 |  | Hill coefficient | 2.36 ± 0.22 |
| CCCC(NC)C(=O)c1ccc2c(c1)OCO2 (racemic) | Sodium-dependent dopamine transporter (Slc6a3, Rattus norvegicus, UniProt P23977) | substrate release, releaser | rat brain synaptosomes | together with: [3H]MPP+ 9 nM |  | EC50 | inactive |
| COc1cc(CCNC(C)c2ccccc2O)c(OC)cc1C#N.Cl (stereo not shown) | 5-hydroxytryptamine receptor 2A (HTR2A, Homo sapiens, UniProt P28223) | Gq signalling, measured: IP1 |  | 60 min | baseline: 5-HT2A over 5-HT2C | selectivity ratio | 2450 fold |
| Brc1ccc2c(c1)C(c1ccccn1)=NCc1c(-c3cnco3)ncn1-2 | Alpha-2B adrenergic receptor (ADRA2B, Homo sapiens, UniProt P18089) | radioligand binding | rat | together with: [3H]rauwolscine | baseline: alpha2B over benzodiazepine site | selectivity ratio | 5.6 fold |
| CC(C)c1ccc(Sc2ccc3nnc(C(F)(F)F)n3n2)cc1 | Grin3a/Grin1 (Mus musculus, UniProt A2AIR5+P35438) | control response, whole-cell patch clamp | mouse brain slice interneurons | 20 µM |  | remaining activity | 290 ± 50% |
| Cc1ccc2c(c1)C1(CC2)C(=O)NC(=S)NC1=O | GABA-A receptor; alpha-1/beta-3/gamma-2 |  |  | 300 µM |  | Emax | 2% |
| CN[C@@]1(c2ccccc2Cl)CCCCC1=O | Neuronal acetylcholine receptor subunit alpha-7 (CHRNA7, Homo sapiens, UniProt P36544) | radioligand binding, antagonist, radioligand displacement |  | 30 µM |  | inhibition | 1% |
| NC1CC2(C(=O)NC(=O)NC2=O)c2ccccc21 (racemic) | GABA-A receptor; alpha-1/beta-3/gamma-2 |  |  | 300 µM |  | Emax | 10% |
| c1ccc2cc([C@]34CNC[C@H]3C4)ccc2c1 | Sodium-dependent dopamine transporter (SLC6A3, Homo sapiens, UniProt Q01959) | inhibitor, [3H]dopamine uptake |  | 100 nM | baseline: no inhibitor | dopamine uptake | 47.4% and 48.6% and 80.3% |
| O=C1NC(=S)NC(=O)C12CCc1ccc(Br)cc12 | GABA-A receptor; alpha-1/beta-3/gamma-2 |  |  | 300 µM |  | Emax | 43% |
| Cl.N#Cc1ccc(C(=O)N[C@H]2CC[C@@]3(O)[C@H]4Cc5ccc(O)c6c5[C@@]3(CCN4CC3CC3)[C@H]2O6)s1 | OPRD1 | radioligand binding | CHO membranes |  | baseline: Ki µ over Ki δ | selectivity ratio | 42.2 |

Some of these lines once more:
| Compound | target | test | test system | conditions | scale | quantity | value |
| --- | --- | --- | --- | --- | --- | --- | --- |
| Brc1ccc2c(c1)C(c1ccccn1)=NCc1c(-c3cnco3)ncn1-2 | Alpha-2B adrenergic receptor (ADRA2B, Homo sapiens, UniProt P18089) | radioligand binding | rat | together with: [3H]rauwolscine | baseline: alpha2B over benzodiazepine site | selectivity ratio | 5.6 fold |
